# Results pooled from the literature.
# Target: Cyclin-dependent kinase-like 2 (CDKL2, Homo sapiens, UniProt Q92772)
Compound,test,setting,scale,quantity,result
Cc1ccc(-c2c(/C=C(\C#N)C(=O)NC(C)C)n(CCCO)c3ncnc(N)c23)cc1,"cell-free assay, competition with immobilised ligand",1 µM,,remaining binding,97%
CNC1C[S+]2CC[S+]3CC[S+](C1)[Ru-4]321([N]=C=S)[n]2c3ccc(OC)cc3c3c4c(c5cc(F)c[n+]1c5c32)C(=O)NC4=O (stereo not shown),KinomeScan,0.1 µM,baseline: untreated,remaining binding,92%
Nc1ncc2c(n1)-c1c([nH]c3ccc(C4=CCOCC4)cc13)CCC2,"binding, competition with immobilised ligand",1 µM,,remaining binding,97%
C=CC(=O)N1CCc2ccc(-n3c(=O)ccc4cnc5ccc(-c6cnn(C)c6)cc5c43)cc21,KINOMEscan,1 µM,baseline: DMSO control,remaining binding,100%
CNC(=O)C1CCN(c2cc(C)c(F)cc2NC(=O)c2ccc(-c3cc(O)ccc3C)c(C)c2)CC1,"binding, competition with immobilised ligand",1 µM,,remaining binding,97%
COc1cc(Nc2nc(C)cc(-c3cnn4nc(OC)ccc34)n2)cc(C(F)(F)F)c1,inhibitor,1 µM,baseline: control,remaining activity,100%
CN1CC[C@@H](COc2cnc(C#N)cc2-c2ccn3nc(NC(=O)C4CC4)cc3c2)C1,"enzyme activity, inhibitor",1 µM,,inhibition,9%
Cc1cnc2nc1Nc1cccc(c1)COC/C=C/COCc1cc(ccc1OCCN1CCOCC1)N2,binding,0.1 µM,,remaining binding,95%
C=CC(=O)N1CCCC(n2c(=O)c3ncccc3n(Cc3ccc(Oc4ccccc4)cc3)c2=O)C1 (stereo not shown),"cell-free assay, competition with immobilised ligand",1 µM,,remaining binding,98%
O=C(Cc1ccc(OCc2ccccc2)cc1)NC1(C(=O)O)CCN(C(=O)c2ccc(-c3cccc(Cl)c3)cc2)CC1,"enzyme activity, inhibitor",10 µM,,activity vs control,136%
O=C(NCC1CCOCC1)c1n[nH]cc1NC(=O)c1c(F)cccc1F,scanMAX,1 µM,baseline: control,remaining binding,77%
COc1c(Cl)cccc1Nc1c(-c2ccncc2C#C[C@@]2(C)CCCN2C(=O)/C=C/CN(C)C)[nH]c2c1C(=O)NCC2,"binding, competition with immobilised ligand",3 µM,,remaining binding,100%
CNC(=O)C[C@H](Cc1ccc(C#N)cc1)NC(=O)c1cc(-c2ccc(CN[C@H](C)c3ccc(C)cc3)o2)ccc1Cl,"enzyme activity, inhibitor",1 µM,,activity vs control,99%
CC(C)=CC1OC(C)(C)C2C=C3C(=O)C(Cl)=CC(O)C3C3C(O)C4OC4C(=O)C132 (stereo not shown),"cell-free assay, competition with immobilised ligand",10 µM,,remaining binding,100%
COc1cc(Nc2nccc(-c3cnn4nc(OC)ccc34)n2)cc(C(F)(F)F)c1,"binding, competition with immobilised ligand",1 µM,,remaining binding,84%
CCN1CCN(Cc2ccc(C(=O)Nc3ccc(C)c(NCc4cnc5[nH]ccc5c4OC)c3)cc2C(F)(F)F)CC1,"binding, competition with immobilised ligand",1 µM,,remaining binding,2%

# Some of these lines once more:
Compound,test,setting,scale,quantity,result
COc1cc(Nc2nc(C)cc(-c3cnn4nc(OC)ccc34)n2)cc(C(F)(F)F)c1,inhibitor,1 µM,baseline: control,remaining activity,100%
